# Results gathered from unrelated publications.
# Values joined by “and” are separate records of one study, mostly repeats; a detail may differ. ± marks the error that the study gave.
Substance,target or system,assay,system,conditions,how to read,endpoint,value
colistin,Aspergillus fumigatus,,solid minimal medium,"10 µM, 4 d",reference: untreated control,radial growth ratio,1.01 and 0.99 and 0.98
insulin human,,measured: QSER1 mRNA,"EcoHIV-infected mouse, brain","i.p., dose not given",reference: PBS,fold change,1.05
Met-enkephalin-Arg-Phe,,"antinociception, tail-flick",male ICR-CD1 mice,"intracerebroventricular, 50 µg/animal, 45 min",,maximum possible effect,15.6% and 11.4% and -2.65% and -2.21% and 23.5% and 1.06% and -4.21% and 14.8%
aspterric acid,,hypocotyl length,Arabidopsis thaliana Col-0 seeds,"3.125 µg/mL, seed germination",reference: water control,inhibition,22.6%
nonaarginine,PorA peptide pore,"peptide binding, planar bilayer single-channel recording",,"0.5 µM, pH 7.4, +35 mV, trans side, 150 mM KCl",,kon,38.4 ± 4 µM⁻¹ s⁻¹
polymyxin B,,calcein leakage,DOPC/CHOL liposomes,"concentration not given, together with: 20 wt% PEG-8000",,leakage time constant,3 ± 1 min
GWTLNSAGYLLGPHAVDNHRSFNDKHGFT-NH2 (C-amide),,,"peptide, female mice, DSS-induced colitis","ip, 3 µM",,colon length,6.3 cm and 7.5 cm and 6.4 cm and 7 cm and 7.3 cm
KLGKGGGLLKKLK,,absorbance at 734 nm,peptide,"1 mg/mL, 5 min, room temperature",,ABTS radical scavenging,0.0277 fraction (0-1)
fengycin,,calcein leakage,DOPC/DOPG/CHOL liposomes,"concentration not given, together with: 20 wt% PEG-8000",,maximum fusion,13 ± 1%
hexaarginine,PorA peptide pore,"peptide binding, planar bilayer single-channel recording",,"0.5 µM, pH 7.4, +15 mV, trans side, 150 mM KCl",,kon,23.3 ± 2.5 µM⁻¹ s⁻¹
HVLVMSATRR,,,"peptide, C57BL/6J mice, male, blood","subcutaneous osmotic pump, 3 mg/kg/day peptide basis, 8 weeks",,haematocrit,40.7% and 42.2% and 39.8% and 42.7%
GWTLNSAGYLLGPRRIDHLLMIKEMPIARGREEAPGA / YAVDNHRSFNDKHGFT-NH2 (C-amide),,"RT-qPCR, measured: Il1a","mouse, DSS-induced colitis, colon","ip, 3 µM, 3% DSS, unit not given",reference: Gapdh,mRNA level,0.667 and 0.296 and 0.311 and 1.02 and 0.229

# Repeated from above:
Substance,target or system,assay,system,conditions,how to read,endpoint,value
hexaarginine,PorA peptide pore,"peptide binding, planar bilayer single-channel recording",,"0.5 µM, pH 7.4, +15 mV, trans side, 150 mM KCl",,kon,23.3 ± 2.5 µM⁻¹ s⁻¹
